Results pooled from the literature.
Each line is one published result; not all experiments were run side by side. Numbers after ± are the reported error.
OPRD1: Delta-type opioid receptor (OPRD1, Homo sapiens, UniProt P41143)
UniProt P41143, sequence (whole entry, looked up): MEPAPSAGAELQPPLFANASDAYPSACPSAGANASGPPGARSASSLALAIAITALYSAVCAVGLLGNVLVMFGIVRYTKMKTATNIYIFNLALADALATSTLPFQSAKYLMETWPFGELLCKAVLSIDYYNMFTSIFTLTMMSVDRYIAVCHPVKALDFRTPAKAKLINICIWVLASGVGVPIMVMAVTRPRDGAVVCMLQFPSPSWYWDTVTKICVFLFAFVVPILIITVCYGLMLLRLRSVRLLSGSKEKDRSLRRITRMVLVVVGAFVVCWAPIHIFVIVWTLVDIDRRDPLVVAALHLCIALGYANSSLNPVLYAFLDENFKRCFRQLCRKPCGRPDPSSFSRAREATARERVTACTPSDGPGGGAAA
OPRM1: Mu-type opioid receptor (OPRM1, Homo sapiens, UniProt P35372)
UniProt P35372, sequence (whole entry, looked up): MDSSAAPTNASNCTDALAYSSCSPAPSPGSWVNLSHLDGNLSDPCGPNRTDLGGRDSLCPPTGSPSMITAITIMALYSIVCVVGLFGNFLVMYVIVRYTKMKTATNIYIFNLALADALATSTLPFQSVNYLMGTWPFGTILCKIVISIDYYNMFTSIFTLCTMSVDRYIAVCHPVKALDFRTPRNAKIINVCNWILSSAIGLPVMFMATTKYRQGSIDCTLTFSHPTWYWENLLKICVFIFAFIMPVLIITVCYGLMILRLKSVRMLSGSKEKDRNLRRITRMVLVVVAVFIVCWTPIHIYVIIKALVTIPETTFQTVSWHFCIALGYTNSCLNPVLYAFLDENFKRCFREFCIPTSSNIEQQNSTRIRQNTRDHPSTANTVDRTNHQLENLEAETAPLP
UniProt P16390, sequence (whole entry, looked up): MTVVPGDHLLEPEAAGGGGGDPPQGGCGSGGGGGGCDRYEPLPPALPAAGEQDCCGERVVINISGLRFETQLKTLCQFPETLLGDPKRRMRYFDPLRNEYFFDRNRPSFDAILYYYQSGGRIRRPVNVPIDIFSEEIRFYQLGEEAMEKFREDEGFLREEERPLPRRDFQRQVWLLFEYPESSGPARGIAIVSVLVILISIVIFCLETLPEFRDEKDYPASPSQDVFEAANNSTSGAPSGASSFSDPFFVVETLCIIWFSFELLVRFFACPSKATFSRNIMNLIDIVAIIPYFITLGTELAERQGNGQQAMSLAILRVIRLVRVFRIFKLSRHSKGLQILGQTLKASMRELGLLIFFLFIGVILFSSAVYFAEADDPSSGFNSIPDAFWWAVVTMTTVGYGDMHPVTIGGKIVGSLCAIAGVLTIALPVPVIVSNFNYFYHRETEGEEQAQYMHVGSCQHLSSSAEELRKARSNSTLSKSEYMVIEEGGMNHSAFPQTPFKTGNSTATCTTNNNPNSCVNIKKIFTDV
UniProt P15151, sequence (whole entry, looked up): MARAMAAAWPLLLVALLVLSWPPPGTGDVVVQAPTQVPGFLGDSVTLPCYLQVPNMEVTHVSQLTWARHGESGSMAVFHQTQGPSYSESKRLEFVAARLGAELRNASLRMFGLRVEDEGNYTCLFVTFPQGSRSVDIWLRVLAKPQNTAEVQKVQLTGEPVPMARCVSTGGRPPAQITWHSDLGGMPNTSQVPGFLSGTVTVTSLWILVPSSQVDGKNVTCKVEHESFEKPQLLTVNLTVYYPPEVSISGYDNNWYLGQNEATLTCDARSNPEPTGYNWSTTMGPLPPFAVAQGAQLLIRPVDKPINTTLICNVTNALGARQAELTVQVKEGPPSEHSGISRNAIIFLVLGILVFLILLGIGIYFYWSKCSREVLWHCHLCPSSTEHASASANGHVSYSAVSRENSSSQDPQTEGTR
UniProt A0A125YHX7, sequence (whole entry, looked up): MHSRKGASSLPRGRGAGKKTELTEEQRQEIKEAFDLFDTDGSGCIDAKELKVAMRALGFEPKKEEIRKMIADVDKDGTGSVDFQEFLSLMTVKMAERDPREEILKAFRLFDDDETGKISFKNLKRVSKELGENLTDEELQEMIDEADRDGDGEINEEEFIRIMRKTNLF
UniProt P48546, sequence (whole entry, looked up): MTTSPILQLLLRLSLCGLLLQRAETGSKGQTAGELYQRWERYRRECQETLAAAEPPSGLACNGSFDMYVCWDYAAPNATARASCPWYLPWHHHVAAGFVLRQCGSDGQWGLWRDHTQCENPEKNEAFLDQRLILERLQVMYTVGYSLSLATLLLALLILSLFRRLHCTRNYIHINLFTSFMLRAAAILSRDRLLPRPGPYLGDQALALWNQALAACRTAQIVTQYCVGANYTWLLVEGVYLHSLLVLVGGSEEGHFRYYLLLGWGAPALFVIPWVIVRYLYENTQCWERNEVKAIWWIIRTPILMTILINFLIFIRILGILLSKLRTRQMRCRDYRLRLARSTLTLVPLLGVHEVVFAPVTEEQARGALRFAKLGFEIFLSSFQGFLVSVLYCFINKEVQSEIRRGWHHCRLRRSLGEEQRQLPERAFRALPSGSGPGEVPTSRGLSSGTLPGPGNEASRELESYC
UniProt P43220, sequence (whole entry, looked up): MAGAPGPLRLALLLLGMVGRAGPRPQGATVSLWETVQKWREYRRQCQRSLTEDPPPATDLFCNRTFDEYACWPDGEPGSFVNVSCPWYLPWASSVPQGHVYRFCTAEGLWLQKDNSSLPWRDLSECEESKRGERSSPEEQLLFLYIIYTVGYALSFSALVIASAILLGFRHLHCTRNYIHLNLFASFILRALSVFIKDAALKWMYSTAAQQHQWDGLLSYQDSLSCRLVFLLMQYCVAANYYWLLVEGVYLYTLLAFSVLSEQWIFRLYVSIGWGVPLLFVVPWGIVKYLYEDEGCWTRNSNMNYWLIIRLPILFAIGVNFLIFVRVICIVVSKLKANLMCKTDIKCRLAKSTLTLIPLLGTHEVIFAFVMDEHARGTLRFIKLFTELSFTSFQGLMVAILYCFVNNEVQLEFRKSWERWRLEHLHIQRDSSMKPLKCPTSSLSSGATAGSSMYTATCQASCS
UniProt P41145, sequence (whole entry, looked up): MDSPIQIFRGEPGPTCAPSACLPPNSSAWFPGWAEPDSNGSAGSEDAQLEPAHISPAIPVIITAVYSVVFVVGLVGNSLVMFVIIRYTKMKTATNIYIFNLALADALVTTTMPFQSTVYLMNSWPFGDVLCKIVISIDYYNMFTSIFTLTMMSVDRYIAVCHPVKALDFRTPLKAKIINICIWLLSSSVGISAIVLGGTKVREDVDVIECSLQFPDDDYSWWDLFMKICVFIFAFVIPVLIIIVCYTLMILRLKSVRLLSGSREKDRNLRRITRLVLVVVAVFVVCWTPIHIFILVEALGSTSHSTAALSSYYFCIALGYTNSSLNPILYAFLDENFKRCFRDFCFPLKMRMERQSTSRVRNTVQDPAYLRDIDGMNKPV

SMILES | target | assay | test system | setting | measurement | value
CC[C@H](C)[C@@H]1NC(=O)[C@H](CC(=O)O)NC(=O)[C@H]([C@@H](C)O)NC(=O)[C@@H]2CSSC[C@@H]3NC(=O)[C@H](CC(C)C)NC(=O)[C@H](CC(N)=O)NC(=O)[C@H](CC(C)C)NC(=O)[C@H](CCCNC(=N)N)NC(=O)[C@H](Cc4ccc(O)cc4)NC(=O)[C@H](CCCCN)NC(=O)[C@H](CCSC)NC(=O)[C@H](CO)NC(=O)[C@H]([C@@H](C)O)NC(=O)[C@H](CCCNC(=N)N)NC(=O)[C@H](CSSC[C@H](NC(=O)[C@H]([C@@H](C)O)NC(=O)[C@H](CCCCN)NC(=O)[C@H](CCCNC(=N)N)NC3=O)C(=O)NCC(=O)N[C@@H](CO)C(=O)N[C@H](C(=O)O)CSSC[C@H](NC(=O)[C@@H](NC(=O)[C@@H](N)CCCNC(=N)N)[C@@H](C)O)C(=O)N[C@@H](CCCCN)C(=O)N[C@@H](CC(=O)O)C(=O)N[C@@H](CC(C)C)C(=O)N[C@@H]([C@@H](C)CC)C(=O)N3CCC[C@H]3C(=O)N[C@@H](C(C)C)C(=O)N[C@@H](CO)C(=O)N[C@@H](CCC(=O)O)C(=O)N2)NC(=O)[C@H](CCCNC(=N)N)NC1=O | KcsA-Shaker channel | potassium current, inhibitor, two-electrode voltage clamp | Xenopus oocytes | – | Ki | 0.94 ± 0.08 nM
CC[C@H](C)[C@H](NC(=O)[C@H](CC(C)C)NC(=O)[C@H](CC(C)C)NC(=O)CNC(=O)[C@H](CCCCN)NC(=O)[C@H](C)NC(=O)[C@H](CC(C)C)NC(=O)[C@H](CC(C)C)NC(=O)[C@H](CCCCN)NC(=O)[C@H](Cc1c[nH]c2ccccc12)NC(=O)[C@@H](N)CC(N)=O)C(=O)N[C@@H](CCCNC(=N)N)C(=O)N[C@@H](CCC(=O)O)C(=O)N[C@@H](CCCNC(=N)N)C(=O)N[C@@H](CC(C)C)C(=O)N[C@@H](CCCCN)C(=O)N[C@@H](CCCNC(=N)N)C(=O)O | Centrin-1, C-terminal domain (CEN1, Toxoplasma gondii, UniProt A0A125YHX7) | binding, ITC | – | pH 7.5, 25 °C, added: 5 mM CaCl2 | Kd | 6.7 ± 1.1 nM
CC[C@H](C)[C@H](NC(=O)[C@H](CCCN)NC(=O)[C@H](CC(=O)O)NC(=O)[C@H](CC(C)C)NC(=O)C(C)(CC(C)C)NC(=O)[C@@H](NC(=O)[C@H](CO)NC(=O)[C@H](Cc1ccc(O)cc1)NC(=O)[C@H](CC(=O)O)NC(=O)[C@H](CO)NC(=O)[C@@H](NC(=O)[C@H](Cc1ccccc1)NC(=O)[C@@H](NC(=O)CNC(=O)[C@H](CCC(=O)O)NC(=O)C(C)(C)NC(=O)[C@@H](N)Cc1ccc(O)cc1)[C@@H](C)O)[C@@H](C)CC)[C@@H](C)CC)C(=O)N[C@@H](Cc1c[nH]cn1)C(=O)N[C@@H](CCC(N)=O)C(=O)NC(C)(C)C(=O)N[C@@H](CC(=O)O)C(=O)N[C@@H](Cc1ccccc1)C(=O)N[C@H](C(=O)N[C@@H](CCC(=O)O)C(=O)N[C@@H](Cc1ccc(O)cc1)C(=O)N[C@@H](CCCCNC(=O)COCCOCCNC(=O)COCCOCCNC(=O)CC[C@H](NC(=O)CCCCCCCCCCCCCCCCCCC(=O)O)C(=O)O)C(=O)N[C@@H](CC(C)C)C(=O)N[C@@H](CCC(=O)O)C(=O)NCC(=O)NCC(=O)N1CCC[C@H]1C(=O)N[C@@H](CO)C(=O)N[C@@H](CO)C(=O)NCC(=O)N[C@@H](C)C(=O)N1CCC[C@H]1C(=O)N1CCC[C@H]1C(=O)N1CCC[C@H]1C(=O)N[C@@H](CO)C(N)=O)C(C)C (stereo partly drawn) | GIPR (Homo sapiens, UniProt P48546) | cAMP accumulation, agonist | HEK293 low GIPR expression | added: albumin, human serum, 0.1%, casein 1.0% | EC50 | 10.2 nM
C=CCCC[C@](C)(NC(=O)CNC(=O)[C@H](C)NC(=O)[C@H](CC(C)C)NC(=O)[C@](C)(CCCC=C)NC(=O)[C@H](CC(C)C)NC(=O)[C@H](CC(C)C)NC(=O)[C@H](Cc1ccccc1)NC(=O)[C@H](Cc1ccc(O)cc1)NC(=O)[C@H](C)NC(=O)[C@@H](N)[C@@H](C)O)C(=O)N[C@@H](Cc1c[nH]c2ccccc12)C(N)=O | Gag-Pol polyprotein, integrase (gag-pol, Human immunodeficiency virus type 1 group M subtype B, UniProt P04585) | integrase strand transfer, inhibitor | – | – | IC50 | > 100000 nM
CC(C)C[C@H](NC(=O)[C@H](CO[C@@H]1O[C@H](CO)[C@@H](O[C@@H]2O[C@H](CO)[C@H](O)[C@H](O)[C@H]2O)[C@H](O)[C@H]1O)NC(=O)[C@H](CCCCN)NC(=O)[C@H](CC(C)C)NC(=O)CNC(=O)[C@H](CCCCN)NC(=O)[C@H](CCC(=O)O)NC(=O)[C@H](C)NC(=O)[C@H](CC(C)C)NC(=O)[C@H](CC(N)=O)NC(=O)[C@@H]1CCCN1C(=O)[C@H](CC(C)C)NC(=O)[C@H](Cc1ccccc1)NC(=O)CNC(=O)[C@H](NC(=O)[C@@H](N)Cc1ccc(O)cc1)[C@H](C)O)C(N)=O | OPRD1 | ligand displacement, radioligand | – | pH 7.5, cell membranes | Ki | 12 nM
Cc1cc(O)cc(C)c1C[C@H](N)C(=O)NCC(=O)NCC(=O)N[C@@H](Cc1ccccc1)C(=O)N[C@H](C(=O)NCC(=O)N[C@@H](C)C(=O)N[C@@H](CCCNC(=N)N)C(=O)N[C@@H](CCCCN)C(=O)N[C@@H](CO)C(=O)N[C@@H](C)C(=O)N[C@@H](CCCNC(=N)N)C(=O)N[C@@H](CCCCN)C(N)=O)[C@@H](C)O | OPRM1 | calcium mobilisation, agonist | CHO with Gαqi5 | mu receptor | EC50 | 16.6 nM
CC(C)C[C@H](NC(=O)[C@H](CO)NC(=O)[C@H](CCCCN)NC(=O)[C@H](CC(C)C)NC(=O)CNC(=O)[C@H](CCCCN)NC(=O)[C@H](CCC(=O)O)NC(=O)[C@H](C)NC(=O)[C@H](CC(C)C)NC(=O)[C@H](CC(N)=O)NC(=O)[C@@H]1CCCN1C(=O)[C@H](CC(C)C)NC(=O)[C@H](Cc1ccccc1)NC(=O)CNC(=O)[C@H](NC(=O)[C@@H](N)Cc1ccc(O)cc1)[C@H](C)O)C(N)=O | OPRK1 (Homo sapiens, UniProt P41145) | ligand displacement, radioligand | – | pH 7.5, cell membranes | Ki | 15 nM
CCCCCCCCCCCCCCCC(=O)N[C@@H](CCC(=O)NCCCC[C@H](NC(=O)[C@H](CC(=O)O)NC(=O)[C@H](CO)NC(=O)[C@@H](NC(=O)[C@H](Cc1ccccc1)NC(=O)[C@@H](NC(=O)CNC(=O)[C@H](CCC(N)=O)NC(=O)[C@H](C)NC(=O)[C@@H](Cc1ccc(O)cc1)NC(C)=O)[C@@H](C)O)[C@@H](C)O)C(=O)N[C@@H](CO)C(=O)N[C@@H](CCCCN)C(=O)N[C@@H](Cc1ccc(O)cc1)C(=O)N[C@@H](CC(C)C)C(=O)N[C@@H](CC(=O)O)C(=O)N[C@@H](CCC(=O)O)C(=O)N[C@@H](CCCNC(=N)N)C(=O)N[C@@H](C)C(=O)N[C@@H](C)C(=O)N[C@@H](CCC(N)=O)C(=O)N[C@@H](CC(=O)O)C(=O)N[C@@H](Cc1ccccc1)C(=O)N[C@H](C(=O)N[C@@H](CCC(N)=O)C(=O)N[C@@H](Cc1c[nH]c2ccccc12)C(=O)N[C@@H](CC(C)C)C(=O)N[C@@H](CC(C)C)C(=O)N[C@@H](CCC(=O)O)C(=O)NCC(=O)NCC(=O)N1CCC[C@H]1C(=O)N[C@@H](CO)C(=O)N[C@@H](CO)C(=O)NCC(=O)N[C@@H](C)C(=O)N1CCC[C@H]1C(=O)N1CCC[C@H]1C(=O)N1CCC[C@H]1C(=O)N[C@@H](CO)C(N)=O)C(C)C)C(=O)O | GLP1R (Homo sapiens, UniProt P43220) | reporter gene, agonist, CRE-luciferase reporter | BHK cells | 3 h, 37 °C, 0% HSA | EC50 | 0.0022 nM
CC(C)C[C@H](NC(=O)[C@H](CO)NC(=O)[C@H](CCCCN)NC(=O)[C@H](CC(C)C)NC(=O)[C@H](C)NC(=O)[C@H](CCCCN)NC(=O)[C@H](CCC(=O)O)NC(=O)C(C)(C)NC(=O)[C@H](CC(C)C)NC(=O)[C@H](CC(N)=O)NC(=O)[C@@H]1CCCN1C(=O)[C@H](CC(C)C)NC(=O)[C@H](Cc1ccccc1)NC(=O)CNC(=O)[C@H](NC(=O)[C@@H](N)Cc1ccc(O)cc1)[C@H](C)O)C(N)=O | OPRD1 | ligand displacement, radioligand | – | pH 7.5, cell membranes | Ki | 25 nM
CC[C@H](C)[C@@H]1NC(=O)[C@@H](NC(=O)[C@H](CO)NC(=O)[C@@H](N)CCCNC(=N)N)CSSC[C@@H](C(=O)N[C@@H](CCCCN)C(N)=O)NC(=O)[C@H]([C@@H](C)O)NC(=O)CNC(=O)[C@@H]2CSSC[C@@H]3NC(=O)[C@H](CCC(N)=O)NC(=O)[C@H](Cc4ccccc4)NC(=O)[C@H](C)NC(=O)[C@H]([C@@H](C)O)NC(=O)[C@H](CSSC[C@H](NC(=O)[C@H](Cc4ccccc4)NC(=O)[C@H](CO)NC(=O)[C@H](CC(C)C)NC(=O)[C@H](CCCNC(=N)N)NC(=O)[C@H](Cc4ccc(O)cc4)NC(=O)[C@H](CCCCN)NC(=O)[C@H](CCSC)NC(=O)[C@H](CO)NC(=O)[C@H](Cc4c[nH]cn4)NC(=O)[C@H](CCCCN)NC3=O)C(=O)N[C@@H](CCCNC(=N)N)C(=O)N[C@@H](CCCCN)C(=O)N[C@@H]([C@@H](C)O)C(=O)N2)NC(=O)[C@H](CCCNC(=N)N)NC(=O)[C@H](CO)NC(=O)[C@H](CCCCN)NC(=O)[C@@H]2CCCN2C(=O)[C@H]([C@@H](C)CC)NC(=O)[C@H]([C@@H](C)O)NC(=O)[C@H](CC(=O)O)NC1=O | Kcna3 (Mus musculus, UniProt P16390) | ion current, inhibitor, patch clamp | – | – | IC50 | 0.026 nM
CC[C@H](C)[C@@H]1NC(=O)[C@@H]2CCCN2C(=O)[C@H](Cc2c[nH]c3ccccc23)NC(=O)[C@H](CO)NC(=O)[C@H](Cc2c[nH]c3ccccc23)NC(=O)[C@H](CC(N)=O)NC(=O)[C@H](CCCCN)NC(=O)[C@H](CCSC)NC(=O)[C@@H]2CSCCC(=O)N3CN(CN(C3)C(=O)CCSC[C@H](NC(=O)[C@H](C)N)C(=O)N3CCC[C@H]3C(=O)N[C@@H](Cc3ccccc3)C(=O)NCC(=O)N2)C(=O)CCSC[C@@H](C(=O)N[C@H](C(=O)N[C@@H](CC(N)=O)C(=O)N[C@@H](CCCCN)C(=O)N(C)CC(=O)N(C)CC(=O)N(C)CC(=O)N(C)CC(=O)N(C)CC(=O)N(C)CC(=O)N[C@@H](CCCCNC(=O)c2ccc(C(=O)O)c(-c3c4ccc(=O)cc-4oc4cc(O)ccc34)c2)C(N)=O)[C@@H](C)O)NC(=O)[C@H](Cc2c[nH]c3ccccc23)NC1=O | Poliovirus receptor (PVR, Homo sapiens, UniProt P15151) | fluorescence polarization | – | – | Kd | > 2000 nM
CC(C)C[C@H](NC(=O)[C@H](CO[C@@H]1O[C@H](CO)[C@@H](O[C@@H]2O[C@H](CO)[C@H](O)[C@H](O)[C@H]2O)[C@H](O)[C@H]1O)NC(=O)[C@H](CCCCN)NC(=O)[C@H](CC(C)C)NC(=O)CNC(=O)[C@H](CCCCN)NC(=O)[C@H](CCC(=O)O)NC(=O)CNC(=O)[C@H](CC(C)C)NC(=O)[C@H](CC(N)=O)NC(=O)[C@@H]1CCCN1C(=O)[C@H](CC(C)C)NC(=O)[C@H](Cc1ccccc1)NC(=O)CNC(=O)[C@H](NC(=O)[C@@H](N)Cc1ccc(O)cc1)[C@H](C)O)C(N)=O | OPRM1 | radioligand displacement | CHO membranes | 60 min, pH 7.5, 25 °C, added: 0.25 nM [3H]DAMGO | Ki | 5 ± 0.37 nM

For quick reference, copied from above:
SMILES | target | assay | test system | setting | measurement | value
C=CCCC[C@](C)(NC(=O)CNC(=O)[C@H](C)NC(=O)[C@H](CC(C)C)NC(=O)[C@](C)(CCCC=C)NC(=O)[C@H](CC(C)C)NC(=O)[C@H](CC(C)C)NC(=O)[C@H](Cc1ccccc1)NC(=O)[C@H](Cc1ccc(O)cc1)NC(=O)[C@H](C)NC(=O)[C@@H](N)[C@@H](C)O)C(=O)N[C@@H](Cc1c[nH]c2ccccc12)C(N)=O | Gag-Pol polyprotein, integrase (gag-pol, Human immunodeficiency virus type 1 group M subtype B, UniProt P04585) | integrase strand transfer, inhibitor | – | – | IC50 | > 100000 nM
